Measured values gathered from unrelated publications.
Numbered parts are unrelated; each lists some results of a single study.

Study 1 — technique: protein-binding microarray; molecule type: double-stranded DNA, one strand shown; sample: in vitro; concentration: 250 nM; setting: 60-bp whole probe; with: salmon DNA 0.4 mg/ml; reference: random background probes; direction: higher = stronger binding; all sequences stand within: GCCTAGCAC … GTCTTGATTCGCTTGACGCTGCTG
Target: Interferon regulatory factor 7, full length, phosphomimetic (IRF7, Homo sapiens, UniProt Q92985, residues 1-503, S101K/S471D/S472D/S475D/S476D/S477D/S483D/S484D/S487D)
Chain of UniProt Q92985 (whole entry, unmodified, looked up): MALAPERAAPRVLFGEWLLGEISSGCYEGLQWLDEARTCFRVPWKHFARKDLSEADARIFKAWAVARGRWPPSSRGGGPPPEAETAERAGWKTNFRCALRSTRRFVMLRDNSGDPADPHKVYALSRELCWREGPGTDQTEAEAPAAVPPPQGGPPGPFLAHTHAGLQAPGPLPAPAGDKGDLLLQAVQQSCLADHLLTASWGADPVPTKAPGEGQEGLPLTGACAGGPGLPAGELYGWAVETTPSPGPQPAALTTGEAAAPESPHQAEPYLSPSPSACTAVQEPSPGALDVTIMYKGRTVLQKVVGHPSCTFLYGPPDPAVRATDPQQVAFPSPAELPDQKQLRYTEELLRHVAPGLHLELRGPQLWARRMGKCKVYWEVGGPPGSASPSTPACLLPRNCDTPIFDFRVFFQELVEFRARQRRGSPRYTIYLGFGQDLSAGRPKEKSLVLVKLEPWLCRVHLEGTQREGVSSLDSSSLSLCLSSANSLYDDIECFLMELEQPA
Sequence | log fluorescence [z-score]
GACTGTTTCGGGTATCGGGACGTGCTA | 3
GACGAGCTGAGTCTCGAGACGTGCTAG | -0.187
GACGAACTGAGTTTCGAGATGTGCTAG | 4.82
TTAGAAATGAGTTTCGATTAGTGCTAG | 8.26
TTCGGACTGGGGTATCGGTTAGTGCTA | 0.234
GACGGTCTCCTTTTCCTAACGTGCTAG | 1.7
TCAAAAGTCTTTTATGGTACTGTGCTA | 0.0474
TTAGGTCTCGGTCTCTGTTAGTGCTAG | 2.15
GACGGTCTCGGTCCCGGGACGTGCTAG | 0.502
TTAGATATCGGGTTTCGGTTAGTGCTA | 6.66
ATCGATTTCTTCCCTGTGAAAGTGCTA | 1.31
TCCACTTGTCTTTTCACTTTGTGCTAG | 1.06
CAATATATATATTATATATTTGTGCTA | 0.663
GACGATTTCATTTTCGAGACGTGCTAG | 1.5
TTAGGTATCATTATCCTTTAGTGCTAG | 0.758
TCATTTTTCTTTAAAAGACTGTGCTAG | 1.17
GACGGTATCGACTTTCGGGAGGTGCTA | 1.13
TTCGGTTCCGGTTTCGGTTAGTGCTAG | 10.3
CTCTGTCTAAAATTGTTAAAGTGCTAG | -0.039
GACGATATCAGACGGGAGACGTGCTAG | -0.135
GACGGTTTCGGGTTTCGGGACGTGCTA | 11.3
GACGTACTGGACACTGGGGACGTGCTA | -0.243
TTAGGTCTCTTTTTCCTTTAGTGCTAG | 2.46
TCAATGTTACATTTATAACTGTGCTAG | 0.15
GCCGAACTGGGGACTGGAGACGTGCTA | -0.805

Study 2 — technique: universal PBM; molecule type: double-stranded DNA, one strand shown; sample: in vitro; concentration: 600 nM; direction: higher = stronger binding
Target: Sal-like protein 4, full length isoform A (SALL4, Homo sapiens, UniProt Q9UJQ4, residues 1-1053)
Chain of UniProt Q9UJQ4 (whole entry, looked up): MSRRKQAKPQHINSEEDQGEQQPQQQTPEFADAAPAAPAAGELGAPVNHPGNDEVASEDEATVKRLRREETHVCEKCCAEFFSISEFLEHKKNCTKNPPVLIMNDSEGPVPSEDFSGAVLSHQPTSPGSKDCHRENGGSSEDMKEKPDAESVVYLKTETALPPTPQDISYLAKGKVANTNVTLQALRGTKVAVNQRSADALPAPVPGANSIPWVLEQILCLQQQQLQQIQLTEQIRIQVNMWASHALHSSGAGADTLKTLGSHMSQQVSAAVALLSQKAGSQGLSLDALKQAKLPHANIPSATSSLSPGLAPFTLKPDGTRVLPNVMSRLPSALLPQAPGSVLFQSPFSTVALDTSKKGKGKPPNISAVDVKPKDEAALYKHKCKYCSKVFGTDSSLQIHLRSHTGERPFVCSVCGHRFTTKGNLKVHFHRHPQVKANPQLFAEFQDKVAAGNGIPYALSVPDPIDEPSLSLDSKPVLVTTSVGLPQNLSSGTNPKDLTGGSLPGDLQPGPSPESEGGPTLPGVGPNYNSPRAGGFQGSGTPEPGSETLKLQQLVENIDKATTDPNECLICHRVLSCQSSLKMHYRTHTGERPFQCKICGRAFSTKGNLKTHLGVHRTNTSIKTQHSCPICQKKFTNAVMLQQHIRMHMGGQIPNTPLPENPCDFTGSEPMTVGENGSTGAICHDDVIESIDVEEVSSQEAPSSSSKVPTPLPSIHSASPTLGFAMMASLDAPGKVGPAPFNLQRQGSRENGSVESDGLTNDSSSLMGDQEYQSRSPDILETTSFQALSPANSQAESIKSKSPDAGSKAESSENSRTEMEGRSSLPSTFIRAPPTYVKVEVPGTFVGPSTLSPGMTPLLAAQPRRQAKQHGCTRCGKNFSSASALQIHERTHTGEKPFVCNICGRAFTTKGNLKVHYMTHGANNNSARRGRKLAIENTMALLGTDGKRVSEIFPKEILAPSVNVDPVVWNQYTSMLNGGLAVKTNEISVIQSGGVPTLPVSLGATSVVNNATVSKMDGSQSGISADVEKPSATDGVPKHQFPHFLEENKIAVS
Setting: 8-mer, flanks averaged, mean of replicates
Sequence | E-score
AAACCCTC | -0.0356
CAAGACTC | -0.0725
ACGCTTAA | 0.0941
CAAAGTGA | -0.0772
CAACGGAA | 0.0704
ATCGGTGC | -0.059
ATCTCACG | -0.0115
ATTTACTA | 0.263
AGCGACCC | -0.392
GCGTATAA | 0.194
AATGCACT | 0.207
ACAGTCCC | -0.239
TACTAGCA | 0.11
CGAGCTCC | -0.187
GCCAGTAA | -0.0427
ATTGGATC | 0.117
CAAGTTAG | -0.00485
GAAACAGA | 0.157
ACCTCTAT | 0.0426
ACTACTGA | 0.00674
ATGGTACG | 0.0627
CGGTTTGC | -0.164

Study 3 — technique: RNAcompete; molecule type: RNA; sample: in vitro; concentration: 20 nM; setting: 7-mer, probes averaged, single round; reference: mean of 7-mers; direction: higher = stronger binding
Target: PABPC1L2, full length, GST fusion (mouse, UniProt A0ABA7IW68)
Target sequence (chain): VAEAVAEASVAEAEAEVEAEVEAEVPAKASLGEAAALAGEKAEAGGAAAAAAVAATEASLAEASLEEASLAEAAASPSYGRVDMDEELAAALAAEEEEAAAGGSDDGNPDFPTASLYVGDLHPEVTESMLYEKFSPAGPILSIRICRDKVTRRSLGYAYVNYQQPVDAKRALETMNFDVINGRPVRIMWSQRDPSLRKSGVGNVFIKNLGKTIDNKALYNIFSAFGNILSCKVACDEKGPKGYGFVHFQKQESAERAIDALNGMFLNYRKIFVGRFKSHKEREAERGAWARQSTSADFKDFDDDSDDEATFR
Sequence | 7-mer Z-score
CUAGCCG | -0.246
AUGUAUC | -0.186
AACAGAU | 0.793
CCCCUUA | -0.469
GCUUAGA | -0.144
CUCUCCG | -0.556
CACAAUA | 0.111
ACUUGGG | 0.305
CCUCCUG | -0.393
UAGUGUG | -0.251
AGGGGUC | 0.196
AGUUACC | -0.108
CGCGCCG | -0.329
CUGGGCC | -0.258
ACUCCAA | -0.0609
UUGCACA | -0.17
CCAGUAC | -0.209
AAGGAAU | 0.126
GACGCGA | -0.00833
AGUAUUA | -0.153
CUGAGGA | 0.182
UUGCGGG | 0.0388
UCUUCCC | -0.467
CGACGUA | -0.182
AUGCCGU | -0.347

Study 4 — technique: protein binding microarray; molecule type: double-stranded DNA, one strand shown; sample: in vitro; concentration: not given; reference: not given; direction: higher = stronger binding
Target: Histone acetyltransferase KAT6A, winged helix 1, GST fusion (KAT6A, Homo sapiens, UniProt Q92794, residues 1-85)
Setting: 8-mer, flanks averaged, mean of 2 arrays, mostly near background
Residues (chain): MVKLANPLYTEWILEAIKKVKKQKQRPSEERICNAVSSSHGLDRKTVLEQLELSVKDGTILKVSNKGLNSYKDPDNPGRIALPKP
Sequence | E-score
GCACTCTA | -0.0402
CCGCTTCG | 0.259
AGTTTTAT | -0.235
ACGCACTC | 0.146
ATCGCGCC | 0.385
AGTCCGCG | 0.325
ACCGGGCA | 0.273
CCGGCCAG | 0.264
CTTTGCAC | -0.25
CACGGCGC | 0.429
ACACGGCT | 0.288
ACAACGCC | 0.224
CTGCCCGC | 0.352
ACCCTTTA | 0.0831
GTAACCAC | 0.0724
CCAGGAAA | -0.148
ACGTGTTG | -0.113
AGGGTCCG | 0.0407
AGTTTATG | -0.209
GCGCCGCC | 0.459
CTCACTGC | -0.0995

Study 5 — technique: RNA Bind-n-Seq; molecule type: RNA; sample: in vitro; concentration: 365 nM; reference: no-protein control; direction: higher = stronger binding
Target: RNA binding protein fox-1 homolog 2, RRM domain, GST-SBP tag (RBFOX2, Homo sapiens, UniProt O43251-10, residues 100-194)
Setting: natural RNA segment, single round, ends assumed
All sequences stand within: GGGAGUUCUACAGUCCGACGAUC … UGGAAUUCUCGGGUGCCAA
Residues (chain): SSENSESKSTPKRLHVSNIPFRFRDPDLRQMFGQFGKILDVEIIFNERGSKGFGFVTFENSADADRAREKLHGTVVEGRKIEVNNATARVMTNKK
Sequence | RBNS enrichment (R)
CUAAUACAGGUAUGUAACAACAAAAGAAGUUGCCUGCAUGCCGGUCCAAAUUGUUCUGUAUAAAGAUGCUCUUAAAAGACACAAGAGUUAUCCUAGAACCUUAAUUCUUU | 0.344
GGAAGAAAGCAAAUGUGUAAAACAGUAGACGUGUGACGUUUAUGAGUAAUGCUGGCUCUGAACAAACUUUUGAAAACUUAGUUGACAGUGUUUUGAGUCAACUGAAAAAA | 0.799
GCCCCUGGCCCCCCACGAGAGCUGGAGAGCCAUGUAUAUGGCUUCAAAGCCACCUACGGCAGGGACACACUCGUGAGCAUGUGUGGCCUGCAGUUCAGGUGAUACAUUUA | 0.348
GUUUUCUCUUUAGAAUUUUGUUAAAGAAAUUCUAAAAGUUUUAAACACCUGCUUUCCACAAUAAGCCAUGAACACUACAGUGAGAUUAGUUCCCUAUUAAUACUUCAUUU | 0.612
GUGGGAUCUACAGAGAAAGCCAUUCUGUGCAUCCCUGAGUAAGGAGCAAGUGAUCAGGUGUCUAUAACAUUUUUCAUUCUCUCUGGAAACAGACUCAGGUUUCUUUGGAC | 0.385
UCUAGAAAAGUAAAAUCUACUUUUGUAUCAGUGUGAAUAAAGUUAGUGUGUUGUCUGUGCAGCUGCACACGGAUGCCUUUGAGGCGCUGUCUGUCAUGCUUCCGGGCUCC | 0.259
AGGACAGAGGGAGAAAGAUCUGAUCCAAAUGAGAACAGAUUGGUUAUUGCAGGUAUCACAGCCUAAAGAAAUUAUCUUUUUGCAAAAGAAAUAUUAAAUGAUUUAGCAGU | 0.612
GGAAAUCAUGUUCUUUUUUUAUAUCUCUAUAUAUAAGAUACAGAGUUGUUUGGUAAGGUUUGGGGUGUUUUUUGUUUUGUUUUGUUUUAAGUUUCCAAACAACCAAACUA | 2.93
UUUGGAAAUACCUUCCUGGCCCCGCCCCUACCCCUUCUUUUUGGUUUUGACAUCACCCAUUUCCAACUGGGGAUCUCUGGUGCCAAGCCAGAAAGAACGAGGCAUGUAUA | 0.406
UAUGUGGAAGGUAAAAAUAGUGGUGUGAUCAUGAACCAAAGGAAUUUAUGUUUUGUAACUUGGGUACUUUAUUUUGCAUUUUGUUAUACUAUUAAAUAAUUUUUUCCUGU | 1.38
UCCGCCCUUUCCCUGGGGAGCCAGACCCCACCCAGAAAUCCCAAGGUUCAAGGUCUUAUUUAACAAACCAGAAAAAUGCAGGCCAAGCCCUAAUUCAUCAUAUUGGUUUA | 0.329
AGGCUCAAGGCUGUGCAGGCACAUAGGCUGGUGGCCUUGGGCCUUGGGGCUCAGCCACAGCCUGACACAGUGCUCGACCUUGAUAGCAUGGGGCCCCUGGCCCAGAGUUG | 2.11

Repeated from above (study 2):
Sequence | E-score
CAAAGTGA | -0.0772
CAACGGAA | 0.0704
ATCGGTGC | -0.059
ATCTCACG | -0.0115
ATTTACTA | 0.263
AGCGACCC | -0.392
GCGTATAA | 0.194
AATGCACT | 0.207
ACAGTCCC | -0.239
